Experimental data from different studies.
Lines come from different studies, so protocols differ. “And” joins repeats or separate records; there may be more than shown.
Organism: Mycobacterium tuberculosis

`NNC(=O)c1ccncc1.O=C(CN1C(=O)CSC1=O)Oc1ccc(/C=N/NC(=O)c2ccccn2)cc1Br` has an FICI of 1.5 (two-drug checkerboard; H37Rv; concentration not given, unit not given; lower means more synergy).
With `c1cc2c(s1)CCOC21CCN(Cc2ccc3c(c2)OCCO3)CC1` the IC50 was 200 nM (bacterial growth).
Under “lung bacterial burden reduction”, `COc1ccc2ncc(F)c(C[C@H](O)[C@H]3OC[C@H](NCc4ccc5c(n4)NC(=O)CO5)CO3)c2c1` is recorded as 0.7 log10 (H37Rv, mouse, IFN-gamma knockout; intraperitoneal, 100 mg/kg twice daily, 10 days; relative to: untreated).
For `Cc1cc(Oc2nc(N3CC[C@@H](c4ccncc4)C3)ncc2F)[nH]n1`, the normalised growth was 98% and 96% (OD; H37Rv PurF CRISPRi knockdown; 4e-06 µM, together with: anhydrotetracycline low).
With `CCC(CO)NCCNC(CC)CO.COC(=O)C=C1SC(=NN=Cc2ccc(OC(=O)CN3C(=O)CSC3=O)cc2)NC1=O` the MIC was 0.5 µg/mL (growth in combination; 192; together with: reference drug at 1/2 MIC).
`O=C(CCC1CCCCC1)Nc1cccc(-c2nnc(-c3ccco3)o2)c1` has an IC50 of 10500 nM (microbial growth).
For `COc1cc(/C=N/NC(=O)c2ccncc2)ccc1OC(=O)CN1C(=O)CSC1=O`, the MIC was 149 µM (microbial growth, resazurin; H37RV).
`Cc1cc(C)c2cc(C(=O)NC3CCCCCC3)[nH]c2c1` has an IC50 of 210 nM (microbial growth).
With `Cc1nc2ccc(OC(F)(F)F)cn2c1C(=O)NCc1ccc2oc(-c3ccc(OC(F)(F)F)cc3)nc2c1` the MIC90 was greater than 25 µM (microbial growth; H37RV).

For quick reference, copied from above:
For `COc1cc(/C=N/NC(=O)c2ccncc2)ccc1OC(=O)CN1C(=O)CSC1=O`, the MIC was 149 µM (microbial growth, resazurin; H37RV).
